Experimental data gathered from unrelated publications.
Compare with care: the assays were run in different laboratories. Several values in a cell are separate wells, animals, samples, runs or records. ± gives the spread as reported.
CNGA1: Cyclic nucleotide-gated channel alpha-1 (CNGA1, Bos taurus, UniProt Q00194)
Sequence of UniProt Q00194 (whole entry, looked up): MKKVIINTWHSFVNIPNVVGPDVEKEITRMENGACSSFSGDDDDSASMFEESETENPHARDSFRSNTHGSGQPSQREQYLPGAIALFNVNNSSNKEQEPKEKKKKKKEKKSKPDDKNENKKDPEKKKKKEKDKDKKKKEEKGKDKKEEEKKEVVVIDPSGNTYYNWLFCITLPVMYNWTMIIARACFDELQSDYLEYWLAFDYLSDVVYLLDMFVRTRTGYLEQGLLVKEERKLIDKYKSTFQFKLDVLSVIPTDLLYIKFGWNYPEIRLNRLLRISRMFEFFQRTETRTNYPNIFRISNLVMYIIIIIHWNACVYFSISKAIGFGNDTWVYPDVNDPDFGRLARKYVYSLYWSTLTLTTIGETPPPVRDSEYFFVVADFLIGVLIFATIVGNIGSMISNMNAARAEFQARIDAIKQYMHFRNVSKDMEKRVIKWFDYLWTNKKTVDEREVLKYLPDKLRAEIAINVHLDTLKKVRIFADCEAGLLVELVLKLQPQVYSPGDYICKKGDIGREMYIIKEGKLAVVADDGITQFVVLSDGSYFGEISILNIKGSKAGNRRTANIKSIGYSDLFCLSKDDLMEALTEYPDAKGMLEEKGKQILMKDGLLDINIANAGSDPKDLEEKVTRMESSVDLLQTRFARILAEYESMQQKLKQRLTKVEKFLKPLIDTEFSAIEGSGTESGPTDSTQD
CFTR del508-508: Cystic fibrosis transmembrane conductance regulator (CFTR, Homo sapiens, UniProt P13569, del508-508)
Calm1: Calmodulin-1 (Calm1, Rattus norvegicus, UniProt P0DP29)
KCNT1: Potassium channel subfamily T member 1 (KCNT1, Homo sapiens, UniProt Q5JUK3)
Sequence of UniProt Q5JUK3 (whole entry, looked up): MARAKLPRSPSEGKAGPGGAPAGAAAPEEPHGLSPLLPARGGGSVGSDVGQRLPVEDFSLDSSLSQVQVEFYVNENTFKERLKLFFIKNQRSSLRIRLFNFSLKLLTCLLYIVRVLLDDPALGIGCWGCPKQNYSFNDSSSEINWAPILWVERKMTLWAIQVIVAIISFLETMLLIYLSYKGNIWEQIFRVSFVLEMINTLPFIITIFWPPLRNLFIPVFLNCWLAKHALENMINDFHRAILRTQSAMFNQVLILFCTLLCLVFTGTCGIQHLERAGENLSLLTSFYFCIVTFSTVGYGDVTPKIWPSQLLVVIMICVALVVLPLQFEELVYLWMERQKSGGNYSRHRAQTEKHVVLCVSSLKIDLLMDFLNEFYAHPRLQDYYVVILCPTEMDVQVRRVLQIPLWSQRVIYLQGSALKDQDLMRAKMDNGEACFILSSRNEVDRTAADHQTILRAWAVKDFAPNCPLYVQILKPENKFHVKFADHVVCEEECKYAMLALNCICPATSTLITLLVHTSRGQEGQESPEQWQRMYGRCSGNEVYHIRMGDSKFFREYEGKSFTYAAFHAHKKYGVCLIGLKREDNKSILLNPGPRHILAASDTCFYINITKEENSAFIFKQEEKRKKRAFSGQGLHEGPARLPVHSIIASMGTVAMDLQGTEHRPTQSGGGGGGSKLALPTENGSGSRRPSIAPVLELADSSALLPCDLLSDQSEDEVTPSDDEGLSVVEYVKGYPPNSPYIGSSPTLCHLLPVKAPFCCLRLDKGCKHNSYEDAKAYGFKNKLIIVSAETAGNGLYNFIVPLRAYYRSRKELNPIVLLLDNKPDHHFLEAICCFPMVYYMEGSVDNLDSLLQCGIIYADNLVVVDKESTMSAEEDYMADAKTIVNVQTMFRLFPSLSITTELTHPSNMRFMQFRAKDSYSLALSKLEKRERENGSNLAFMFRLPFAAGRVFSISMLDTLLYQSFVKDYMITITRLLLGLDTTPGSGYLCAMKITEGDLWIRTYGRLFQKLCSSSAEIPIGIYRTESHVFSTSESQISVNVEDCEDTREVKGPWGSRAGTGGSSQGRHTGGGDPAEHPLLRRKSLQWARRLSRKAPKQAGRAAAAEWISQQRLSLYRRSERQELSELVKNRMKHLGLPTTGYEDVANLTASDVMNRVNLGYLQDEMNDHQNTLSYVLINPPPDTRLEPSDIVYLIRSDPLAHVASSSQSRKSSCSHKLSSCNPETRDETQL
YAP1 WW1 domain: Transcriptional coactivator YAP1, WW1 domain (YAP1, Homo sapiens, UniProt P46937)
Sequence of UniProt Q96D31 (whole entry, unmodified, looked up): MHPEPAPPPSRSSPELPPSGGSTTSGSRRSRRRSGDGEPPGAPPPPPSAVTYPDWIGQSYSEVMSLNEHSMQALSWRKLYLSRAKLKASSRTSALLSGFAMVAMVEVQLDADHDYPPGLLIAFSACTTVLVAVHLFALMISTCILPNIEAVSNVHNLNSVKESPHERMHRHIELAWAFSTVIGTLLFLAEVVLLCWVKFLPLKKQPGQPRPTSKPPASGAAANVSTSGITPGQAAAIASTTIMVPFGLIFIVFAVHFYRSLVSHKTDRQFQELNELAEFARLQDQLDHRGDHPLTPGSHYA
Sequence of UniProt Q9Y2U9 (whole entry, looked up): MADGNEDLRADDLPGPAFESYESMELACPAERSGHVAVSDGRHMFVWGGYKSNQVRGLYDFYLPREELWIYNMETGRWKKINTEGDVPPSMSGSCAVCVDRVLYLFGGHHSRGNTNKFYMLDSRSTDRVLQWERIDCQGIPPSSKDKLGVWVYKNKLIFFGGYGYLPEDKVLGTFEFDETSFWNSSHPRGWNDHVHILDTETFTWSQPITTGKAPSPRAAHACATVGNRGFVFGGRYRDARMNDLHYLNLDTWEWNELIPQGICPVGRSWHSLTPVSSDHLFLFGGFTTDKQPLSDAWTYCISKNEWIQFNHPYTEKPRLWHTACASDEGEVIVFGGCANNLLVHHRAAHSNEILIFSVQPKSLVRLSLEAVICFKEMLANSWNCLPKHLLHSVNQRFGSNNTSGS
Sequence of UniProt Q01469 (whole entry, looked up): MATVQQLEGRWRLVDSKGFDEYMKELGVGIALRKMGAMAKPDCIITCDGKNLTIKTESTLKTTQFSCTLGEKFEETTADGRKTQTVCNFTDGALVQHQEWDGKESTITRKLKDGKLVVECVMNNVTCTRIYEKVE
Sequence of UniProt Q9NZ08 (whole entry, unmodified, looked up): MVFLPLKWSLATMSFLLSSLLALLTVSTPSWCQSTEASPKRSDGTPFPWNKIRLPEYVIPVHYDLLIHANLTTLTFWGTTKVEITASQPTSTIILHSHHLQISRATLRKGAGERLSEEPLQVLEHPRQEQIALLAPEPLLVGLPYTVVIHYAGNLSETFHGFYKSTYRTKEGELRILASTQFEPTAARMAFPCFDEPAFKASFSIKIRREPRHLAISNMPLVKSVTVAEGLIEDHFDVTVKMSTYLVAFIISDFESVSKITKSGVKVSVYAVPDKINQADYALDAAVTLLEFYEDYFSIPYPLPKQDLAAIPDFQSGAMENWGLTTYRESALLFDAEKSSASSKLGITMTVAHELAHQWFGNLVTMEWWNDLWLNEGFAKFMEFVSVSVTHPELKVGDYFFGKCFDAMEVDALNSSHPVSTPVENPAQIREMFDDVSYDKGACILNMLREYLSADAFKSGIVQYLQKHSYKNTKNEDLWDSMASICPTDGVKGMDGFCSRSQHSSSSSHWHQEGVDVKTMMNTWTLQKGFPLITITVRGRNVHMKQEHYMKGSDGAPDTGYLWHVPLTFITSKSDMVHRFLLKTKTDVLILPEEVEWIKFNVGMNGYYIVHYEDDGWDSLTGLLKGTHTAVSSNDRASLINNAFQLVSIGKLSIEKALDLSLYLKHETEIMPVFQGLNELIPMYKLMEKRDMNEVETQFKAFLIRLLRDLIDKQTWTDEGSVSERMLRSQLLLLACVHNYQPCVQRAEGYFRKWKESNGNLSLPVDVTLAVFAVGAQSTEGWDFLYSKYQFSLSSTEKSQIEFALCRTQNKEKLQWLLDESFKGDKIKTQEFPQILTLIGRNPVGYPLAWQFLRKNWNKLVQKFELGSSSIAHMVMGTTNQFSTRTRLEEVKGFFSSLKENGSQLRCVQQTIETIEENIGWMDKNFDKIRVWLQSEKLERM
Sequence of UniProt Q9UI95 (whole entry, unmodified, looked up): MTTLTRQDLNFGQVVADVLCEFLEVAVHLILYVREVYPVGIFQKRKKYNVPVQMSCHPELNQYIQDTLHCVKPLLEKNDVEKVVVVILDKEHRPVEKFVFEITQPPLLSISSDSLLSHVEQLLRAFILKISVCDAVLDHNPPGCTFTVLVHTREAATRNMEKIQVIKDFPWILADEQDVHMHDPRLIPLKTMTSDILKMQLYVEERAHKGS
Sequence of UniProt Q8HZR1 (whole entry, looked up): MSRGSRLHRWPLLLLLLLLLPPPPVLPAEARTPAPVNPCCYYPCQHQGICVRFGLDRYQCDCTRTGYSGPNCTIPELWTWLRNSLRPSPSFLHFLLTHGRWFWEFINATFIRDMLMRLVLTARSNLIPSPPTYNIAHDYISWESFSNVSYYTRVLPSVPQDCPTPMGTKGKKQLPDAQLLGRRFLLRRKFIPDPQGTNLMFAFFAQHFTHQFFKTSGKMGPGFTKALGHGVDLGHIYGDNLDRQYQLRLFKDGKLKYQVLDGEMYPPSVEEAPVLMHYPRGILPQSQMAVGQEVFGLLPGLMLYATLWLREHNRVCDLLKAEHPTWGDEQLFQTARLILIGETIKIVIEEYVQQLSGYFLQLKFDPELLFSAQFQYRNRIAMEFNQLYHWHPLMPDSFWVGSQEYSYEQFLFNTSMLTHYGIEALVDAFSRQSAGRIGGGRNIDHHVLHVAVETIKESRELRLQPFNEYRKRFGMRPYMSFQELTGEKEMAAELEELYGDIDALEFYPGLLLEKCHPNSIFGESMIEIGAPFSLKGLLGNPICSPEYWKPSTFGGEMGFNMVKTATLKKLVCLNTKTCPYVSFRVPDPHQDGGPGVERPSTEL

CC(C(=O)O)c1ccc(-c2ccccc2)c(F)c1 (stereo not drawn) — current change (Degenerin mec-4 (mec-4, Caenorhabditis elegans, UniProt P24612, A713T); ion current, two-electrode voltage clamp; Xenopus oocytes coexpressing MEC-2; 30 µM, -85 mV; relative to: uninjected oocytes, positive inhibition, negative potentiation): -3.7 µA
NS(=O)(=O)c1ccc(N2N=C(C(F)(F)F)C[C@@H]2c2ccc(F)cc2F)cc1 — IC80 (Prostaglandin G/H synthase 1 (Canis lupus familiaris, UniProt Q8HZR1); TXB2 formation, inhibitor; clotting dog whole blood; 1 h, 37 °C): > 500 µM
O=c1c(-c2ccc(O)cc2)coc2cc(O)cc(O)c12 — recovery time constant (CNGA1; cGMP-activated current, inside-out patch clamp; Xenopus oocytes; after closed-channel dissociation, added: saturating cGMP): 2.4 s
IINFEKL — Hill coefficient (Endoplasmic reticulum aminopeptidase 1 (ERAP1, Homo sapiens, UniProt Q9NZ08, I681R); substrate; peptide; pH 8.0, 27 °C, mutant I681R, added: L-AMC, peptide activator 100 µM): 1.4
COc1ccc(Cl)cc1Nc1nc2c(s1)CCCCc1nc(NC(=O)c3ccno3)sc1-2 — Vmax (CFTR del508-508; iodide influx, corrector, YFP halide quenching; FRT cells expressing YFP-H148Q/I152L; 16 to 20 h, 37 °C, genistein 50 µM, added: forskolin 20 µM): 467 µM/s
Nc1ccc(-c2nc([C@H]3CCc4cc(-c5cc(Cl)ccc5-n5cnnn5)cc(=O)n43)c(F)[nH]2)c(F)n1 — FXI activity inhibition (Coagulation factor XI (F11, Homo sapiens, UniProt P03951); human, blood; oral, 150 mg once daily, fed, day 1, 24 h): 52 ± 11.2%
CC[C@H](C)[C@H](NC(=O)[C@H](CC(C)C)NC(=O)[C@H](Cc1ccccc1)NC(=O)[C@@H](NC(=O)[C@H](C)N)[C@@H](C)O)C(=O)N[C@@H](CCC(N)=O)C(=O)N[C@@H](CCC(=O)O)C(=O)N[C@@H](Cc1ccc(O)cc1)C(=O)N[C@@H](Cc1ccccc1)C(=O)N[C@@H](CCCNC(=N)N)C(=O)N[C@@H](CCCCN)C(=O)N[C@@H](Cc1ccccc1)C(=O)N[C@@H](CCCCN)C(=O)N[C@@H](CCCCN)C(=O)N[C@@H](CCCNC(=N)N)C(=O)N[C@@H](CCCCN)C(=O)N[C@@H](CCC(=O)O)C(=O)N[C@@H](CCC(N)=O)C(=O)NCC(=O)N[C@@H](CC(C)C)C(=O)N[C@H](C(=O)NCC(=O)N[C@@H](CCCCN)C(=O)N1CCC[C@H]1C(=O)N[C@@H](CO)C(=O)N[C@@H](CCC(N)=O)C(=O)O)C(C)C — apparent calcium binding free energy, ΔG2 (rat calmodulin 1-80, sites I and II; fluorescence titration; 6 to 8 µM, pH 7.4, 22 °C): -13.6 ± 0.15 kcal/mol
COc1ccc(Cl)cc1Nc1nc2c(s1)CCCCc1nc(NC(=O)C(C)C)sc1-2 — Vmax (CFTR del508-508; iodide influx, corrector, YFP halide quenching; FRT cells expressing YFP-H148Q/I152L; 16 to 20 h, 37 °C, genistein 50 µM, added: forskolin 20 µM): 717 µM/s
COc1ccc(/C=C\c2cc(OC)c(OC)c(OC)c2)cc1O — inhibition (tubulin; colchicine binding, [3H]colchicine binding; 50 µM, 10 min, 37 °C, added: [3H]colchicine 5.0 µM): 100 ± 0.04%
CN(CCOc1ccc(CC2SC(=O)NC2=O)cc1)c1ccccn1 (stereo not drawn) — induction (Peroxisome proliferator-activated receptor gamma (Rattus norvegicus, UniProt O88275); reporter gene, agonist; CHO-K1; 1 µM): > 7
CC(C)C[C@H](NC(=O)[C@@H](NC(=O)[C@@H](N)[C@@H](C)O)C(C)C)C(=O)N[C@@H](C)C(=O)N1CCC[C@H]1C(=O)N1CCC[C@H]1C(=O)N1CCC[C@H]1C(=O)N[C@@H](Cc1ccc(O)cc1)C(=O)N[C@@H](CCCNC(=N)N)C(=O)N[C@@H](Cc1c[nH]cn1)C(=O)N[C@@H](CCCNC(=N)N)C(=O)N[C@@H](CC(N)=O)C(=O)O — TΔS (Transcriptional coactivator YAP1, WW2 domain (YAP1, Homo sapiens, UniProt P46937); binding, ITC; pH 7.0, 25 °C, WW2 domain): -5.29 ± 0.4 kcal/mol
Nc1nc2c(ncn2[C@@H]2O[C@@H]3COP(=O)(O)O[C@H]3[C@H]2O)c(=O)[nH]1 — Imax relative to cGMP (CNGA1; ion current, agonist, inside-out patch clamp; Xenopus oocytes; rod homomeric channel; relative to: maximum cGMP current at start): 1
GSRPQRLLWQTAVRHITEQRFIHGH — koff1 (Calm1; Ca2+ dissociation, stopped-flow quin-2 fluorescence; peptide; 2 µM, pH 7.4, 22 °C, added: Ca2+-calmodulin complex): 4.9 s⁻¹ and 4.93 s⁻¹
O=S(=O)(Sc1ccc(Cl)cc1)c1ccc(Cl)cc1 — inhibition (tubulin; colchicine binding; 5 µM, 10 min, 37 °C, added: 5.0 µM [3H]colchicine): 0%
Nc1ncnc2c1ncn2[C@@H]1O[C@H](COP(=O)(O)OP(=O)(O)OP(=O)(O)O)[C@@H](O)[C@H]1O — dissociation rate constant (Sodium/potassium-transporting ATPase subunit alpha-1 (ATP1A1, Canis lupus familiaris, UniProt P50997); binding, ligand dissociation kinetics; dog enzyme; Na+ 45 mM, 4 °C, Et3N+ replacement, total monovalent cation 500 mM, nitrate, preparation A): 0.78 ± 0.1 s⁻¹
CCOc1ccccc1NC(=O)N1CC(c2nc(-c3ccsc3)no2)C1 — efficacy (KCNT1; Tl+ flux, activator; HEK293 expressing KCNT1; 30 µM; relative to: loxapine maximum response): < 10%
IKPAKRMKFKTVCYLLVQLMHCRKMFKA — koff2 (Calm1; Ca2+ dissociation, stopped-flow quin-2 fluorescence; peptide; 2 µM, pH 7.4, 22 °C, added: Ca2+-calmodulin complex): 1.16 s⁻¹ and 1.2 s⁻¹
O=C(Nc1ccn(Cc2ccc(O)cc2C(F)(F)F)n1)c1c(F)cccc1F — fold shift in potency (Calcium release-activated calcium channel protein 1, with STIM1 (ORAI1, Homo sapiens, UniProt Q96D31, E106D); ion current, inhibitor, whole-cell patch clamp; E106D pore mutant vs wild type, added: STIM1 co-expression; relative to: E106D mutant over wild type): ≥ 10 fold
FLFGG — fraction of protein bound (Kelch domain-containing protein 2 (UniProt Q9Y2U9); native mass spectrometry; peptide, 200 mM ammonium acetate; 20 µM Kelch domain-containing protein 2, pH 7; relative to: total Kelch domain-containing protein 2 signal): 0.6%
Cc1ccc(-c2csc3ncn(Cc4ccccc4)c(=O)c23)o1 — activity (MAD2L2, with REV3L peptide (Homo sapiens, UniProt Q9UI95, R124A); concentration not given): inactive
CC(C)C[C@H](NC(=O)[C@@H](NC(=O)[C@@H](N)[C@@H](C)O)C(C)C)C(=O)N1CCC[C@H]1C(=O)N1CCC[C@H]1C(=O)N1CCC[C@H]1C(=O)N[C@@H](C)C(=O)N[C@@H](Cc1ccc(O)cc1)C(=O)N[C@@H](CCCNC(=N)N)C(=O)N[C@@H](Cc1c[nH]cn1)C(=O)N[C@@H](CCCNC(=N)N)C(=O)N[C@@H](CC(N)=O)C(=O)O — TΔS (YAP1 WW1 domain; binding, ITC; pH 7.0, 25 °C, WW1 domain): -6.91 ± 0.57 kcal/mol
O=P(O)(O)C(F)(F)C(F)(F)C(F)(F)C(F)(F)C(F)(F)C(F)(F)C(F)(F)C(F)(F)F — heavy/light labeling ratio (Fatty acid-binding protein 5 (FABP5, Homo sapiens, UniProt Q01469); probe binding, competitive probe labeling LC-MS/MS; HEK293T lysate; 100 µM over 10 µM, desthiobiotin probe): 1.64
CC(C)C[C@H](NC(=O)[C@@H](NC(=O)[C@@H](N)[C@@H](C)O)C(C)C)C(=O)N1CCC[C@H]1C(=O)N1CCC[C@H]1C(=O)N1CCC[C@H]1C(=O)N1CCC[C@H]1C(=O)N[C@@H](Cc1ccc(O)cc1)C(=O)N[C@@H](C)C(=O)N[C@@H](Cc1c[nH]cn1)C(=O)N[C@@H](CCCNC(=N)N)C(=O)N[C@@H](CC(N)=O)C(=O)O — ΔH (YAP1 WW1 domain; binding, ITC; pH 7.0, 25 °C, WW1 domain): -9.8 ± 0.28 kcal/mol
CCOc1ccccc1S(=O)(=O)N1CC(c2nc(-c3nccs3)no2)C1 — activity class (KCNT1; Tl+ flux, inhibitor; HEK293 expressing KCNT1; 30 µM): inactive
